# Assay results collected from several papers.
# Compare with care: the assays were run in different laboratories. ± gives the spread as reported.
SMILES,test,test system,setting,tissue uptake [%ID/g]
N#C[C@@H]1CCCN1C(=O)CNC(=O)c1ccnc2ccc(OCCCN3CCN(C(=O)CCc4ccc(O)c(CN5CCN6CC(=O)[O][Al-]([18F])([O]C(=O)C5)[O]c5ccc(CCC(=O)N7CCN(CCCOc8ccc9nccc(C(=O)NCC(=O)N%10CCC[C@H]%10C#N)c9c8)CC7)cc5C6)c4)CC3)cc12 (stereo partly drawn),,"BALB/c nude mice, U-87 MG xenograft, tumour","1 h, blocked 60 min, together with: DOTA-FAPI-04 40 nmol co-injected",4.18 ± 0.3
CCCC[C@H](NC(=O)CNC(=O)CNC(=O)CN1CCN(CC(=O)O)CCN(CC(=O)O)CC1)C(=O)N[C@H]1CC(=O)NCCCC[C@@H](C(N)=O)NC(=O)[C@H](Cc2c[nH]c3ccccc23)NC(=O)[C@H](CCCNC(=N)N)NC(=O)[C@@H](Cc2ccccc2)NC(=O)[C@H](Cc2c[nH]cn2)NC1=O [gallium-67 labelled],,"female C57 mice, B16/F1 melanoma, spleen","intravenous, 0.037 MBq, 24 h",0.85 ± 0.23
CCCC[C@@H]1NC(=O)[C@@H](NC(=O)[C@H](CCC(=O)O)NC(=O)CNC(=O)CN2CCN(CC(=O)O)CCN(CC(=O)O)CCN(CC(=O)O)CC2)CCCCNC(=O)C[C@@H](C(N)=O)NC(=O)[C@H](C(C)C)NC(=O)[C@@H]2CCCN2C(=O)[C@H](CCCNC(=N)N)NC(=O)CNC(=O)[C@H](Cc2c[nH]c3ccccc23)NC(=O)[C@H](CCCNC(=N)N)NC(=O)[C@@H](Cc2ccccc2)NC(=O)[C@H](Cc2c[nH]cn2)NC(=O)[C@H](CCC(=O)O)NC1=O [gallium-67 labelled],,"C57 mice with B16/F1 melanoma, muscle","intravenous, 0.037 MBq, 24 h",0.09 ± 0.08
N=C(N)NCCC[C@@H]1NC(=O)[C@H](CCCCNC(=O)CON=C[C@H](F)[C@@H](O)[C@H](O)[C@H](O)CO)NC(=O)[C@@H](Cc2ccc(O)cc2)NC(=O)[C@H](CC(=O)O)NC(=O)CNC1=O [fluorine-18 labelled],,"nude mice U-87 MG tumour, heart","intravenous, 2 h",2.57 ± 2.53
CCCC[C@H](NC(=O)CNC(=O)CNC(=O)CN1CCN(CC(=O)O)CCN(CC(=O)O)CCN(CC(=O)O)CC1)C(=O)N[C@H]1CC(=O)NCCCC[C@@H](C(N)=O)NC(=O)[C@H](Cc2c[nH]c3ccccc23)NC(=O)[C@H](CCCNC(=N)N)NC(=O)[C@@H](Cc2ccccc2)NC(=O)[C@H](Cc2c[nH]cn2)NC1=O [gallium-67 labelled],,"female C57 mice, B16/F1 melanoma, bone","intravenous, 0.037 MBq, 2 h",1.04 ± 0.24
CC(C)[C@H](NC(=O)[C@@H]1CCCN1C(=O)[C@H](CCCNC(=N)N)NC(=O)[C@H](CS)NC(=O)[C@H](Cc1c[nH]c2ccccc12)NC(=O)[C@H](CCCNC(=N)N)NC(=O)[C@@H](Cc1ccccc1)NC(=O)[C@H](Cc1c[nH]cn1)NC(=O)[C@H](CCC(=O)O)NC(=O)[C@H](CS)NC(=O)[C@H](CS)NC(=O)CNC(=O)[C@@H]1CC(=O)N[C@@H](CCCNC(=N)N)C(=O)NCC(=O)N[C@@H](CC(=O)O)C(=O)N[C@H](Cc2ccc(O)cc2)C(=O)N1)C(N)=O [technetium-99m labelled],,"C57 mice B16/F1 melanoma female, bone","iv, 2 h, together with: NDP-MSH 10 µg co-injected",1.18 ± 1.07
O=C([O-])c1cccc(CN(CCN(Cc2cn(Cc3ccccc3)nn2)Cc2cccc(C(=O)[O-])n2)Cc2cn(Cc3ccccc3)nn2)n1.[64Cu+2],PET imaging,"healthy female athymic nude mice, liver",24 h,~8
NC12CNCCNCC(NCc3ccc(CNC(=O)CCCC(=O)NCc4ccc(-c5nncnn5)cc4)cc3)(CNCCNC1)CNCCNC2.[64Cu+2],,"athymic nude mice SW1222 xenograft, muscle","12 h post injection, 24 h accumulation interval, together with: huA33-TCO pretargeting",0.15 ± 0.01
CN1C(=O)[C@@H](Cc2ccc(O)c(I)c2)NC(=O)CNC(=O)[C@H](Cc2ccc3ccccc3c2)NC(=O)[C@H](CCCNC(=N)N)NC(=O)[C@H]1CCCNC(=O)c1ccc(CNC(=O)CN2CCN(CC(=O)O)CCN(CC(=O)O)CCN(CC(=O)O)CC2)cc1 [lutetium-177 labelled],item: 177Lu radioactivity,"female CB-17 SCID mice, Daudi xenograft, liver","intravenous, 0.16 nmol per mouse, 96 h",6.29 ± 0.36
